Experimental data collected from several papers.
A part holds a random share of what one study measured. Positions count from the first letter of the parent shown.

Study 1 — technique: protein binding microarray; form: double-stranded DNA, one strand shown; sample: in vitro; tested at: not given; reference: not given; direction: higher = stronger binding
Target: Histone acetyltransferase KAT6A, both winged helices, GST fusion (KAT6A, Homo sapiens, UniProt Q92794, residues 1-181)
Setting: 8-mer, flanks averaged, mean of 2 arrays, mostly near background
Residues (chain): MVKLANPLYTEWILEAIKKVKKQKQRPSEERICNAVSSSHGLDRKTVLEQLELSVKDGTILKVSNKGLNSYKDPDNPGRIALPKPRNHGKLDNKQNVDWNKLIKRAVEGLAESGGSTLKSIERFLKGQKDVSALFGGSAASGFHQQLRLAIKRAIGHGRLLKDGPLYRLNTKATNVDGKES
The E-score of `ATTGGACG` is reported as 0.0461.
`CTGGAGTA` gave an E-score of -0.143.
For `ATCATGGG`, the E-score was -0.169.
The E-score of `GCTATAAC` is reported as -0.0488.
The E-score of `ATATTATG` is reported as 0.00145.
`CTAGACTC` has an E-score of -0.0841.
With `ACAACTCG` the E-score was -0.129.
`AACCCGGC` gave an E-score of 0.296.
With `CGTTCTTC` the E-score was 0.0916.
`GAGATGCC` has an E-score of 0.0139.
`ATTGTGCA` gave an E-score of -0.0671.
With `ACATCTAA` the E-score was -0.155.
`ATATAGGA` gave an E-score of -0.103.
`GGAGTCCA` gave an E-score of -0.00651.
`GAGTCGGC` has an E-score of 0.132.
For `CCTTTCGC`, the E-score was 0.134.
`ATTCTTTG` has an E-score of -0.131.
For `AATACGCT`, the E-score was 0.0734.
The E-score of `CACCGGAC` is reported as 0.118.
`CACGAGCA` gave an E-score of -0.0963.
`CCCAGAGG` gave an E-score of -0.153.
`ACATCGAC` gave an E-score of -0.0204.
`TCGCCGCA` has an E-score of 0.217.
For `AGCCACAA`, the E-score was -0.0978.
With `AAGGCTTA` the E-score was -0.0687.

Study 2 — target: CCNA1, cyclin fold, Cln2 fusion (human); technique: yeast growth competition, sequencing; sample: yeast; setting: weak parent motif; reference: not given; direction: higher = stronger binding
Parent: CDKN1B docking peptide (human); PSACRNLFGPVDH; partner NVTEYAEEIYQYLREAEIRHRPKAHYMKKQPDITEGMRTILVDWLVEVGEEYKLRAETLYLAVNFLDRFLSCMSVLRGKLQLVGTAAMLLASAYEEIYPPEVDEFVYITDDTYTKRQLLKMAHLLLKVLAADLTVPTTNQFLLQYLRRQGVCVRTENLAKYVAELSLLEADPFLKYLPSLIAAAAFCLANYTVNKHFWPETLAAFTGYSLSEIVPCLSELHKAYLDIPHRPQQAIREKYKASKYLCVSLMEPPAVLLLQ
Under “normalised enrichment score”, `PSACLNLFGPVDH [R5L]` is recorded as 0.284.
`FSACRNLFGPVDH [P1F]` — result for “normalised enrichment score”: 0.331.
Under “normalised enrichment score”, `PSACRNLFVPVDH [G9V]` is recorded as 0.373.
Under “normalised enrichment score”, `PSACRNLFGPVDG [H13G]` is recorded as 0.167.
Under “normalised enrichment score”, `PSACRNLFGYVDH [P10Y]` is recorded as 0.606.
Under “normalised enrichment score”, `PSACRNLFFPVDH [G9F]` is recorded as 0.249.
For `PSACRRLFGPVDH [N6R]`, “normalised enrichment score” read 0.19.
`PSACRNPFGPVDH [L7P]`: “normalised enrichment score” -0.0194.
`PSSCRNLFGPVDH [A3S]` — result for “normalised enrichment score”: 0.195.
`PSACRNLFGPVHH [D12H]`: “normalised enrichment score” 0.0448.
`PSACRNLFGEVDH [P10E]` — result for “normalised enrichment score”: 0.556.
Under “normalised enrichment score”, `PSACRNLNGPVDH [F8N]` is recorded as 0.321.
For `PPACRNLFGPVDH [S2P]`, “normalised enrichment score” read 0.314.
Under “normalised enrichment score”, `PSACRLLFGPVDH [N6L]` is recorded as 0.447.
For `PSACRNWFGPVDH [L7W]`, “normalised enrichment score” read 0.0994.
`PSACRNLFGPVDP [H13P]` — result for “normalised enrichment score”: 0.304.
`PSACFNLFGPVDH [R5F]`: “normalised enrichment score” 0.226.
`PSACENLFGPVDH [R5E]` — result for “normalised enrichment score”: 0.4.
`PSACRNLDGPVDH [F8D]` — result for “normalised enrichment score”: 0.178.
Under “normalised enrichment score”, `ESACRNLFGPVDH [P1E]` is recorded as 0.184.

Study 3 — technique: RNA Bind-n-Seq; form: RNA; sample: in vitro; tested at: 200 nM; setting: whole 134-nt RNA, ends assumed; added: 150 mM LiCl; reference: input library; direction: higher = stronger binding; all molecules: 7-deaza-guanosine replaces G
Target: Ras GTPase-activating protein-binding protein 1, full length (G3BP1, Homo sapiens, UniProt Q13283)
Sequence of UniProt Q13283 (whole entry, looked up): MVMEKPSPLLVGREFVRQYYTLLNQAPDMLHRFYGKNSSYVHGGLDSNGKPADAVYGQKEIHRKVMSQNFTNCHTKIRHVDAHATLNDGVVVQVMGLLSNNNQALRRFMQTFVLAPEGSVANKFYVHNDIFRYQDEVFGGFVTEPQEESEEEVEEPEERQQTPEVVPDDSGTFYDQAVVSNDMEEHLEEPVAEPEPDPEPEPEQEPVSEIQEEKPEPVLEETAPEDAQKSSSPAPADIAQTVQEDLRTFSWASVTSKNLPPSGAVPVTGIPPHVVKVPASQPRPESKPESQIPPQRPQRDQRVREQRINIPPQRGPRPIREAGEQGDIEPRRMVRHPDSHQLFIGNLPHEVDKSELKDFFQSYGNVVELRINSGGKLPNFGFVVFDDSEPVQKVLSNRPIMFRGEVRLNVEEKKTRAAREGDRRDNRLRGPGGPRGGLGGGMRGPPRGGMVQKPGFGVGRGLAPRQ
All sequences stand within: GGGAGUUCUACAGUCCGACGAUC … UGGAAUUCUCGGGUGUCAAGG
`CACAGACAACACGCACCCACACAGACACAGAGGGAAGGGGUUGGGAUGGGGACAGGGUGCACAGCAGGGCGGGGUGGGACCCCAGCCCCU` gave a log2 enrichment of 0.969.
For `UAACUUUAGAGGAGGAUCUGAUGGAUAUGGCAGUGGACGUGGAUUUGGGGAUGGCUAUAAUGGGUAUGGAAGAGGACCUGGAGGUGGCAA`, the log2 enrichment was -0.311.
For `AGUCCUGUGCUACACAUCGUAUGUACCGAAUCGGGGAGGGGUUUUUGGGGAAAGGGGAAAGUAUUAUGUUACGCCGUUCGGAUCUGCACU`, the log2 enrichment was 0.55.
The log2 enrichment of `AGUCCUGUGCUACACAUCGUAUGUACCGAAUCGGGGUUUGGGGAAAGGGGAAAGGGGAAAGUAUUAUGUUACGCCGUUCGGAUCUGCACU` is reported as 0.262.
With `ACCAUGCAGGUGGGCAUCUUUGGGAAGUGGGGCAAGGGGGGGAUAGGGAGGGGGGUAACACUUUGGGAUCAGGUGGUCCCAGGUCGUUUC` the log2 enrichment was 0.455.
For `CCUCAAGUCCUGUGCUACACAUCGUAUGUACCGAAUCGGAAGGGAAGGAAGGAAAGUAUUAUGUUACGCCGUUCGGAUCUGCACUUCCAG`, the log2 enrichment was -1.28.
`GUCCUGUGCUACACAUCGUAUGUACCGAAUCGGGUUUUUGGGAAAAAAAGGGAAAGGGAAAGUAUUAUGUUACGCCGUUCGGAUCUGCAC` gave a log2 enrichment of -1.58.
`AAGUCCUGUGCUACACAUCGUAUGUACCGAAUCAAACCCAAACCCCCAAAUUUAAAAAAGUAUUAUGUUACGCCGUUCGGAUCUGCACUU` has a log2 enrichment of 1.12.

Study 4 — technique: competition protein-binding microarray; form: double-stranded DNA, one strand shown; sample: in vitro; tested at: 2 µM; added: Pho4 competitor, 0.05 µM; direction: higher = stronger binding; all sequences stand within: … GTCTTGATTCGCTTGACGCTGCTG
Target: Centromere-binding protein 1, full length, His-tagged (CBF1, Saccharomyces cerevisiae, UniProt P17106, residues 1-351)
Sequence of UniProt P17106 (whole entry, looked up): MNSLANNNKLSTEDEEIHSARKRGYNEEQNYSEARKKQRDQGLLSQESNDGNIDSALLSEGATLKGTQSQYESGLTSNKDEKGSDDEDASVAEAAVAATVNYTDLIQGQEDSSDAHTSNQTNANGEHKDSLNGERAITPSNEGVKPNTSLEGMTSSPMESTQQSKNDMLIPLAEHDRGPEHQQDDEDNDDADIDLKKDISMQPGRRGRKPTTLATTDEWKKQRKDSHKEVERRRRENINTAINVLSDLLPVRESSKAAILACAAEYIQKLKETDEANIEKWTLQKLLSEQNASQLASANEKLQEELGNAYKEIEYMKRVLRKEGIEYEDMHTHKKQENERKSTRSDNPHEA
Setting: whole 60-bp probe, lowest competitor level
The fluorescence intensity of `CTTCTGTAAATTTGAGAAGTGGGTGGACGCGCCCCG` is reported as 73.8 a.u.
`CTTAAATGAAACTGACGCGTGGCCGTAGATTCCAAC` has a fluorescence intensity of 74.2 a.u.
For `GACCATATCTTTGTACGCATTGTTTCCATTCAAAGA`, the fluorescence intensity was 90.2 a.u.
`AAAGCGGTAATTTGTCAGGTGGGTGCAGATATCTAT` has a fluorescence intensity of 205 a.u.
The fluorescence intensity of `CGTCCTAGTGATTGCGCCGTGGGTGCCATGAGGAAG` is reported as 78.4 a.u.
With `TTTCCAGTTAGGTACCATGTGGCATGCTGTTTTTCC` the fluorescence intensity was 113 a.u.
The fluorescence intensity of `GATCTACTATCAGTTTTCGTGGCCGATGGGTTACAT` is reported as 72.7 a.u.
For `TTTCAAAGCTGCCTCCACGTGGAACTTTTATTTCAT`, the fluorescence intensity was 575 a.u.
`TGCGCAACAACTTGGCCGGTGGGTGTATGTCTAGAA` gave a fluorescence intensity of 70.2 a.u.
`GAGCGATGCCAGCATCACATGCAGGTTTTCAAGTAT` has a fluorescence intensity of 345 a.u.
With `CGTCCTAGCGATTGAGAAGTGGGTGCCATGAGGAAG` the fluorescence intensity was 57 a.u.
The fluorescence intensity of `AACAATAGAAGAAGTGTATAGGAAAAAACTAAGGTG` is reported as 87.7 a.u.
`AGGGTTACCATTAAAAAGCGTCCCAGAAAAGGTGGA` has a fluorescence intensity of 68.4 a.u.
`ATGTACAGTGGTACCCTCGTGTCCTCTGCAGCGAGA` has a fluorescence intensity of 88.8 a.u.

Study 5 — technique: RNA Bind-n-Seq; form: RNA; sample: in vitro; tested at: 365 nM; reference: no-protein control; direction: higher = stronger binding
Target: RNA binding protein fox-1 homolog 2, RRM domain, GST-SBP tag (RBFOX2, Homo sapiens, UniProt O43251-10, residues 100-194)
Setting: natural RNA segment, single round, ends assumed
All sequences stand within: GGGAGUUCUACAGUCCGACGAUC … UGGAAUUCUCGGGUGCCAA
Under “RBNS enrichment (R)”, `CCGUUGUGGAAAUUAUUGGAAUUAACUGAGCCAAAGUGAUUAUGCAUUCUUCAUCUAUUUUAGUUAGCACUUUGUAUCGUUAUAUACAGUUUACAAUACAUGUAUAACUU` is recorded as 1.11.
`UUCUUGAUACCACCCAGAAAGUCUGCUACAUACCUGAGUUAGCCACUAGAUUGCCUGUCCCGACUCAUUGAAGUGCUCCCCAGGGAGCCACUUCUGAUUUGCCAUGGUUG` — result for “RBNS enrichment (R)”: 0.409.
For `CUUCAACCUCCCGUGCCUCGUUUCCUCCCUCUGUAGCAUGGGGCUCGAGACUCCUGUUUGUGAGGGACUCUUACAAGGAUAAGAGCAAGGCCACACCACUUCCGCUGUGU`, “RBNS enrichment (R)” read 0.704.
`GUUUAUUCUGAUGCAUUCUGAUGGGUCAGUGUCGUGUCAUUAAUUAAUAAAGGCAUUUUCUUCUCAUACAGUUUCAUACAGACGUGUGGAUUGUGCCUCACUCUGUCAGA` — result for “RBNS enrichment (R)”: 0.426.
`CUGGAUGAGAAUUUGAGUGCUCUGAUCCCUCUACAGAGCUUCCCUGACUCAUUCUGAAGGAGCCCCAUUCCUGGGAAAUAUUCCCUAGAAACUUCCAAAUCCCCUAAGCA`: “RBNS enrichment (R)” 1.01.
Under “RBNS enrichment (R)”, `UAAUUUAUUUUGUUAACACCCCUAAUUACAACCAAAGUGAUGAUGUGGAGUCUUCUGUCUUCAUUUUGGCCCCAGCAUUCUUAAUUUCAAAGCUUUAUUCUGUCUGCCUA` is recorded as 0.834.
`UUAAAAGACUAGCAUCAGUAGGCUCUAUUCUUUUGUAUUUGGGUUAGAAAUUUAAUAUAAUCAGCCUUAACUAUGUUGUCUAACUCCUAAAGUACUUUGUUAUAAAGUCU` — result for “RBNS enrichment (R)”: 1.09.
Under “RBNS enrichment (R)”, `GAGUCAGCCAAGGACACUGGGGCUGAAUGAAAUGCCCAUUCUUCAGGCAUUUCUACCAUAAUAUUGGAAUUGAACACAUUGGCUAAAUAAAGUUGAAAUUUUACUACCCA` is recorded as 0.369.
`CCCAGGCAGUGCAGCUCCCUGGUGGGUUGGUAGAGGGACCUCAGCUUAAGGAACUGCCCUGCCACUCACCCAGGUGACAGCCUGUAGCAGUGCAUGGAGACCCCUUUAGG` — result for “RBNS enrichment (R)”: 1.91.
`GGCGAGCAGCGGGCAGACCUCCAAGGACAGCCUCUAGCUGAGGUCUCAGUCACAUGAAGUGUGACACUGAACAGGUAGAAAGCACUGAAAAUCGUGUUCCAAGAGCACUU`: “RBNS enrichment (R)” 0.698.
`GUACAGUAUUGCUGCUCAUACACUGAGGAGGUGGGGUCGUCUUCUGAGGAUAUGAACUACACUGCUUGGUCACACGCUGGGAUCAGAAUCUUAAGCAGUUAUUCUUGCCA`: “RBNS enrichment (R)” 5.65.
For `AAUAAAAAUGUGUGUAUUAUAUAUAUAUAUUUUUUCCUCCUUGACAGUACUUGGUCACAAUAUCAAGUGUAUUUUUGUACAUAAUAUAUAUUGAUUAGAAAAACGUCAAU`, “RBNS enrichment (R)” read 0.526.

Excerpt of the above (study 4):
With `CGTCCTAGCGATTGAGAAGTGGGTGCCATGAGGAAG` the fluorescence intensity was 57 a.u.
The fluorescence intensity of `GATCTACTATCAGTTTTCGTGGCCGATGGGTTACAT` is reported as 72.7 a.u.
`TGCGCAACAACTTGGCCGGTGGGTGTATGTCTAGAA` gave a fluorescence intensity of 70.2 a.u.
With `TTTCCAGTTAGGTACCATGTGGCATGCTGTTTTTCC` the fluorescence intensity was 113 a.u.
`AAAGCGGTAATTTGTCAGGTGGGTGCAGATATCTAT` has a fluorescence intensity of 205 a.u.
The fluorescence intensity of `CGTCCTAGTGATTGCGCCGTGGGTGCCATGAGGAAG` is reported as 78.4 a.u.
For `GACCATATCTTTGTACGCATTGTTTCCATTCAAAGA`, the fluorescence intensity was 90.2 a.u.
The fluorescence intensity of `AACAATAGAAGAAGTGTATAGGAAAAAACTAAGGTG` is reported as 87.7 a.u.
`CTTAAATGAAACTGACGCGTGGCCGTAGATTCCAAC` has a fluorescence intensity of 74.2 a.u.
